Results gathered from unrelated publications.
± gives the spread as reported. Converted amounts (≈) assume the structure as drawn.

Sequences of proteins named here, by UniProt entry; tags and fusion partners are left off.
UniProt Q9P286, whole entry: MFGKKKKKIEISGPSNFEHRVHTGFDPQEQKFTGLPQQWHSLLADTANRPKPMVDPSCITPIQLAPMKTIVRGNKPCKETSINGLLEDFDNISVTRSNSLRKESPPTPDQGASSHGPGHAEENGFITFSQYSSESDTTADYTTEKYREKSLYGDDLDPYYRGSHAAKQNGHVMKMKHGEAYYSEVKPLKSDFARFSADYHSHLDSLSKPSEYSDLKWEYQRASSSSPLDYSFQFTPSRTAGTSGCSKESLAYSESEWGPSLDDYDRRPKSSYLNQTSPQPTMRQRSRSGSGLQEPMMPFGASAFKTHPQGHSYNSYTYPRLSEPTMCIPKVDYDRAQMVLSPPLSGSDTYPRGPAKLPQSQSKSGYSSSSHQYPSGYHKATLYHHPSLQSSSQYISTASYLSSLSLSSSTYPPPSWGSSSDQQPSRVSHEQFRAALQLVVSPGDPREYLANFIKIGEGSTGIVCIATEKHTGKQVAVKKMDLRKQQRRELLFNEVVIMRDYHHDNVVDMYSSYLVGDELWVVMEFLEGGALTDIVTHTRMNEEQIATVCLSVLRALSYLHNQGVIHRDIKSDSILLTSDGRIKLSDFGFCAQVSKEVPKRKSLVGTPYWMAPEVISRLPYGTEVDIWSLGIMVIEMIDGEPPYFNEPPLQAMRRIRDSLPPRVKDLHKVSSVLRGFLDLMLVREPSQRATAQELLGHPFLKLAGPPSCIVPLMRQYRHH

| Compound | target or system | assay | system | setting | how to read | endpoint | value |
| --- | --- | --- | --- | --- | --- | --- | --- |
| CCOC(=O)OCOc1c(-c2ccc(Oc3ccc(OC(F)(F)F)cc3)cc2)c(C)nc2cc(OC)c(Cl)cc12 | Plasmodium falciparum | cell growth, SYBR Green I | D6 | 72 h | – | IC50 | 6 nM |
| Cc1ccc(S(=O)(=O)N(C)CC(=O)N(Cc2ccc(C3CCCCC3)cc2)c2ccc(C(=O)O)c(O)c2)cc1 | STAT3 | confocal immunofluorescence | NIH3T3/hEGFR | 50 µM, 30 min pretreatment, with: 1 µg/mL EGF 10 min | – | Stat3-EGFR colocalization | inhibited |
| COc1cc(OC)c2ccccc2c1C=C1C(=O)NC(=S)NC1=O | – | IL-2 secretion, inhibitor, ELISA, refers to: IL-2 | activated T cells, mouse | GDM-12 vehicle | – | effective concentration | 5 µM |
| CC#C/C(=N\OC[C@H]1COCCN1)c1ccc2ncnc(Nc3ccc(OCc4cccc(F)c4)c(Cl)c3)c2c1 | – | tumour growth | HT115, SCID mouse subcutaneous xenograft | oral, 21 days daily | – | ED50 | < 25 mg/kg |
| CCCCCCC1c2ccc(O)cc2Oc2cc(O)ccc21 | Klebsiella pneumoniae | – | BARB 105 | with: polymyxin B nonapeptide 25 µg/mL | – | MIC | 14.9 µg/mL (≈ 49.9 µM) |
| CCC(C)C(CC)C(N)=O (stereo not drawn) | – | maximal electroshock seizure | mouse | intraperitoneal | – | ED50 | 58 mg/kg |
| COCCOc1ccc2nc3ccc(=O)c(Br)c-3oc2c1 | Mycobacterium tuberculosis | – | mc2 6206 bedaquiline-resistant MmpL5 regulator mutant | 7 days | – | MIC90 | 35 µM (≈ 12.3 µg/mL) |
| CC1CCC2(CC1)OOCN(CCCCCCCCCCN1COOC3(CCC(C)CC3)OOC3(CCC(C)CC3)OOC1)COOC1(CCC(C)CC1)OO2 (stereo not drawn) | U-937 | cytotoxicity, 7-AAD flow cytometry | – | – | – | IC50 | 2980 ± 170 nM |
| Oc1ccc(C2NCCc3c2[nH]c2ccc(Cl)cc32)cc1O (stereo not drawn) | dengue virus 2 | viral replication, plaque reduction | NGC | bound stated in text | – | IC50 | ≤ 1000 nM |
| CCc1nc(N)nc(N)c1C#CCc1cc(OC)c(OC)c(-c2ccncc2)c1 | Staphylococcus aureus | – | MRSA clinical isolate UCH 115, dfrA, SSTI | – | – | MIC | > 20 µg/mL |
| O=c1ccc2nc3ccc(OCc4ccc([N+](=O)[O-])s4)cc3oc-2c1 | Mycobacterium tuberculosis | – | mc2 6206, ddn mutant, PA-824-resistant | – | – | MIC90 | no effect |
| NNC(=O)c1ccncc1 | Mycobacterium bovis | – | BCG Tac^r7.2, thyA W133S missense | TA-C-resistant thyA mutant | – | MIC50 | 0.4 µM (≈ 0.0549 µg/mL) |
| C(CCCCCN1COOC2(CCCCCC2)OOC2(CCCCCC2)OOC1)CCCCN1COOC2(CCCCCC2)OOC2(CCCCCC2)OOC1 | Jurkat | annexin V/7-AAD | – | 3.0 µM, 24 h | – | early apoptotic cells | 32.9% |
| O=C(O)COc1ccc2nc3ccc(=O)cc-3oc2c1 | Mycobacterium tuberculosis | – | mc2 6206 clofazimine-resistant fbiC mutant | 7 days | – | MIC90 | > 256 µM |
| CC[C@H](C)[C@@H]1NC(=O)[C@H](CCC(=O)O)NC(=O)[C@@H]2CCCN2C(=O)[C@H](Cc2c[nH]cn2)NC(=O)[C@H](CC(=O)O)NC(=O)[C@H](Cc2ccc(O)cc2)NC(=O)[C@H](CC(N)=O)NC(=O)[C@@H]2CSSC[C@@H]3NC(=O)CNC(=O)CNC(=O)CNC(=O)[C@H](C)NC(=O)[C@H](C)NC(=O)CNC(=O)CNC(=O)[C@H](CSSC[C@H](NC3=O)C(=O)N[C@@H](CO)C(=O)N[C@@H](CC(=O)O)C(=O)N3CCC[C@H]3C(=O)N[C@@H](CCCNC(=N)N)C(=O)N2)NC1=O | Cav2.1 human Q1856E | Ba2+ current | – | 200 nM | – | inhibition | 6.6 ± 1.7% |
| O=c1ccc2nc3ccc(OCc4ccc([N+](=O)[O-])o4)cc3oc-2c1 | Mycobacterium tuberculosis | – | mc2 6206 clofazimine-resistant fbiC mutant | 7 days | – | MIC90 | > 256 µM |
| c1ccc(Nc2cccc3ccccc23)cc1 | Manis javanica OBP3 Y117F | binding, fluorescence binding | – | with: 1-NPN probe | – | Kd | 480 ± 110 nM |
| CC(C)[C@H]1CC[C@@H](N2CCC(n3c(CO)cc4ccccc43)CC2)CC1 | sodium channel site 2 | radioligand binding | – | 10 µM | – | inhibition | 94% |

| Compound | target or system | assay | system | setting | how to read | endpoint | value |
| --- | --- | --- | --- | --- | --- | --- | --- |
| CCC(C)C1NC(=O)/C(=C(/C)O)C1=O (stereo not drawn) | plasma membrane H+-ATPase (Spinacia oleracea) | ATP hydrolysis | plasma membrane fraction | 2.5 µM | – | Vmax | 83.8 nmol Pi/mg/min |
| Cn1c([N+](=O)[O-])cnc1COc1ccc2nc3ccc(=O)cc-3oc2c1 | Mycobacterium tuberculosis | – | mc2 6206 bedaquiline-resistant MmpL5 regulator mutant | 7 days | – | MIC90 | > 256 µM |
| CCN(CC)C(=O)Oc1ccc(C(=O)Nc2cccc3cc[nH]c23)cc1 | – | NMDA receptor EPSC, inhibitor, whole-cell patch clamp | CA1 pyramidal neurons, mouse, hippocampal slices | 10 µM | baseline: control | peak amplitude | 100 ± 3.5% |
| CCN1CCN(Cc2ccc(NC(=O)c3ccc(C)c(/C=C/c4cnc5[nH]ccc5c4OC)c3)cc2C(F)(F)F)CC1 | Serine/threonine-protein kinase PAK 5 (PAK5, Homo sapiens, UniProt Q9P286) | inhibitor | – | 5 µM | baseline: no inhibitor | log2 fold change | 0.054 |
| CC(C)Oc1ccc2nc3ccc(=O)cc-3oc2c1 | Mycobacterium tuberculosis | – | mc2 6206 PA-824-resistant ddn mutant | 7 days | – | MIC90 | 69 µM (≈ 17.6 µg/mL) |
| C[C@H]1COc2c(N3CCN(C)CC3)c(F)cc3c(=O)c(C(=O)O)cn1c23 | Staphylococcus aureus topoisomerase IV GrlA S81Y | – | – | – | – | concentration of maximal DNA cleavage | 300 µM |
| CC(C)Cc1nnc2c(C(=O)NC3c4ccccc4-c4ccccc43)cccn12 | Escherichia coli | broth microdilution | MB5746 rpoZ Δ35-91 frameshift | – | baseline: mutant over wild type | MIC ratio | > 32 |
| C[C@]12CCC(=O)C=C1CCC1C2CC[C@]2(C)C(n3cnc4ccccc43)=CCC12 (stereo partly drawn) | LAPC4 | cell proliferation, MTT | – | 7 days, with: DHT 10 nM | – | IC50 | 1000 nM |
| CCCCCCCCCCCCCC(=S)NCCCC[C@H](NC(=O)OCc1ccccc1)C(=O)Nc1cccc(O)c1 | MDA-MB-231 | cell growth | – | – | – | GI50 | 6 ± 2 µM |
| O=[N+]([O-])c1ccc(N2CCN(c3ccc([N+](=O)[O-])cc3[N+](=O)[O-])CC2)c([N+](=O)[O-])c1 | Staphylococcus aureus | – | resistant clinical isolate | – | – | MIC | > 500 µg/mL |
| CCCOc1ccc2nc3ccc(=O)cc-3oc2c1 | Mycobacterium tuberculosis | – | mc2 6206 PA-824-resistant ddn mutant | 7 days | – | MIC90 | 4.8 µM (≈ 1.23 µg/mL) |
| Cc1cc(OCc2nnc(SC3CCCC3)n2-c2cccnc2)ccc1-c1ccc(S(C)(=O)=O)cc1 | CCRF-CEM | – | – | – | – | CC50 | > 100 µM |
| O=[N+]([O-])c1cn2c(n1)OC[C@@H](OCc1ccc(OC(F)(F)F)cc1)C2 | Mycobacterium bovis | – | BCG Tac^r7.1, thyA A148E missense | TA-C-resistant thyA mutant | – | MIC50 | 0.2 µM (≈ 0.0719 µg/mL) |
| O=C(Cn1c(-c2ccccn2)nc2ccccc21)Nc1ccc2ccccc2c1 | IMPDH (human) | enzyme activity, inhibitor | – | – | – | IC50 | > 10000 nM |
| CSc1nc(Cl)cc(Sc2nnc(-c3cc(C(F)(F)F)cc(C(F)(F)F)c3)[nH]2)n1 | Pseudomonas aeruginosa | – | MDR clinical isolate | with: polymyxin B nonapeptide 3 µg/mL | – | MIC | 0.2 µg/mL (≈ 0.424 µM) |
| Cc1c(N2CC[C@@H](CN)C2)c(F)cc2c(=O)n(N)c(=O)n(C3CC3)c12 | Staphylococcus aureus topoisomerase IV GrlA S81Y | DNA cleavage | – | – | – | CC3 | 0.18 µM |
| C1CCCC2(CC1)OOCOCOOC1(CCCCCC1)OO2 | K562 | cytotoxicity, 7-AAD flow cytometry | – | – | – | IC50 | 7490 ± 210 nM |
| CC(=O)OCOc1ccc2nc3ccc(=O)cc-3oc2c1 | Mycobacterium tuberculosis | – | mc2 6206 clofazimine-resistant fbiC mutant | 7 days | – | MIC90 | 25 µM |

For quick reference, copied from above:
| Compound | target or system | assay | system | setting | how to read | endpoint | value |
| --- | --- | --- | --- | --- | --- | --- | --- |
| CCc1nc(N)nc(N)c1C#CCc1cc(OC)c(OC)c(-c2ccncc2)c1 | Staphylococcus aureus | – | MRSA clinical isolate UCH 115, dfrA, SSTI | – | – | MIC | > 20 µg/mL |
| O=c1ccc2nc3ccc(OCc4ccc([N+](=O)[O-])s4)cc3oc-2c1 | Mycobacterium tuberculosis | – | mc2 6206, ddn mutant, PA-824-resistant | – | – | MIC90 | no effect |
| NNC(=O)c1ccncc1 | Mycobacterium bovis | – | BCG Tac^r7.2, thyA W133S missense | TA-C-resistant thyA mutant | – | MIC50 | 0.4 µM (≈ 0.0549 µg/mL) |
| C(CCCCCN1COOC2(CCCCCC2)OOC2(CCCCCC2)OOC1)CCCCN1COOC2(CCCCCC2)OOC2(CCCCCC2)OOC1 | Jurkat | annexin V/7-AAD | – | 3.0 µM, 24 h | – | early apoptotic cells | 32.9% |
